# Measured values from different studies.
# Protocols differ between the studies behind these lines. ± gives the spread as reported.
# Proteasome component C5/PSMB8: Proteasome component C5/PSMB8 (Homo sapiens, UniProt P20618+P28062)
# GLO1: Lactoylglutathione lyase (GLO1, Homo sapiens, UniProt Q04760)
# DPP9: Dipeptidyl peptidase 9 (DPP9, Homo sapiens, UniProt Q86TI2)
# PDIA3: Protein disulfide-isomerase A3 (PDIA3, Homo sapiens, UniProt P30101)
# SLC7A5: Large neutral amino acids transporter small subunit 1 (SLC7A5, Homo sapiens, UniProt Q01650)
SMILES,target,test,system,setting,IC50 [µM]
COc1ccc(C[C@H](NC(=O)Cc2cccc(Oc3ccccc3)c2)C(=O)N[C@@H](Cc2c[nH]c3ccccc23)C(=O)NCc2ccc(C)cc2)cc1OC,Proteasome component C5/PSMB8,inhibitor,,,0.037
Cc1cc(N2CC[C@@](C#N)(C3(C)CC3)C2=O)cc(C(=O)NCc2cc(F)cc(-c3cnn(C)c3)c2)n1,"HTR2B (Homo sapiens, UniProt P41595)",cell-free assay,,,> 10
O=C1CSC(c2cccc(Br)c2)N1c1cc(Cl)ccc1O (stereo not shown),"ACTR2/ACTR3 (Bos taurus, UniProt A7MB62+P61157)","actin polymerization, inhibitor, pyrenyl-actin",,"3 µM actin, 30% pyrenyl, together with: 5 nM Arp2/3 complex, 1 µM N-WASp-VCA",11
CCN(CC)C(=O)c1ccc(-c2cc(NCCCN3CCCCC3)c3ccccc3n2)cc1,"Low molecular weight phosphotyrosine protein phosphatase, isoform A (Mus musculus, UniProt Q9D358)","enzyme activity, inhibitor",,together with: OMFP,0.8
COc1ccc(-c2cc(C(F)(F)F)nc(S(=O)(=O)CCC(=O)Nc3ccc(C)cc3)n2)cc1,"BLM (Homo sapiens, UniProt P54132)","enzyme activity, inhibitor, ADP detection",,,> 50
NS(=O)(=O)c1ccc(/N=N/c2ccc(O)cc2)cc1,GLO1,"enzyme activity, inhibitor",,,3.03
CC[C@H](C)[C@H](NC(=O)[C@H](CCCNC(=N)N)NC(=O)[C@H](CC(N)=O)NC(=O)[C@H](C)NC(=O)[C@H](Cc1c[nH]cn1)NC(=O)[C@@H](NC(=O)[C@H](CCC(N)=O)NC(=O)[C@@H]1CCCN1C(=O)[C@@H](N)CC(=O)O)[C@@H](C)O)C(=O)N[C@@H](Cc1ccc(O)cc1)C(=O)N[C@@H](CCCNC(=N)N)C(=O)N[C@@H](CCSC)C(=O)N[C@H](C(=O)N[C@@H](CCCCN)C(=O)N[C@@H](CC(C)C)C(=O)N[C@@H](CC(C)C)C(=O)N[C@@H](CC(C)C)C(=O)NCC(=O)O)[C@@H](C)CC,Hsp90,"luciferase refolding, inhibitor",rabbit reticulocyte lysate,together with: heat-denatured luciferase,94.5 ± 3.6
C/C=C1\NC(=O)[C@H](C)NC(=O)[C@@H](NC(=O)[C@@H](Cc2ccc(O)cc2)NC(=O)[C@@H](NC(=O)/C(C)=C/C)C(C)C)[C@@H](C)OC(=O)[C@H](CCCCc2ccc(O)cc2)NC(=O)[C@@H](CCC(=O)O)NC1=O,"CELA1 (Sus scrofa, UniProt P00772)",inhibitor,,,1.15 ± 0.46
C=CC(=O)N1CCc2ccc(-n3c(=O)ccc4cnc5ccc(-c6cnn(C)c6)cc5c43)cc21,"FLT3 (Homo sapiens, UniProt P36888)","enzyme activity, inhibitor",,,3.99
CCC1(CC)C(=O)N(c2cccc(CN3CCN(c4cc(C)nc5ccc(Br)cc45)CC3)c2)C1=O,DPP9,"cell-free assay, inhibitor",,,1.03
CCCCCc1ccc(S(=O)(=O)N2CC2C(=O)OC)cc1 (stereo not shown),PDIA3,"enzyme activity, inhibitor, absorbance",,pH 7.6,> 200
CCOc1c(C(C)(C)O)sc2cnc(Nc3ccc(N4CCC(N5CC6(COC6)C5)CC4)cc3OC)nc12,"CAMK2D (Homo sapiens, UniProt Q13557)","enzyme activity, inhibitor, mobility shift",,,0.022
O=C(O)CCNC(=S)NCCCC[C@H](NC(=O)OCc1ccccc1)C(=O)Nc1ccccc1,"SIRT5 (Homo sapiens, UniProt Q9NXA8)","enzyme activity, inhibitor",,,5.6
CCc1ccc(-c2cc(NC3CC(C)(C)NC(C)(C)C3)nc(-c3cc(C)ccc3O)c2)o1,"Protein RecA (recA, Escherichia coli, UniProt P0A7G6)","ATPase activity, inhibitor, phosphomolybdate blue",,together with: poly(dT) ssDNA,4.7
CC(C)NC(=O)[C@H](CCc1ccccc1)NC(=O)[C@H](CC(=O)NCC(C)(C)C)NC(=O)CCc1ccccc1,Proteasome component C5/PSMB8,inhibitor,,,0.2
COc1cc(-c2nc3ccc(C(=O)NCCCN4CCN(c5ccccn5)CC4)cc3n2C2CCC2)cc(OC)c1OC,"ACVRL1 (Homo sapiens, UniProt P37023)","target engagement in cells, BRET",,,> 30
OC[C@@H]1NC[C@H](O)[C@@H]1O,"Golgi alpha-mannosidase IIb (Drosophila melanogaster, UniProt Q9VF33)",inhibitor,,together with: p-nitrophenyl mannoside,270
CC(CCC(=O)NCC(=O)O)C1CCC2C3CCC4CC(O)CCC4(C)C3CC(O)C12C (stereo not shown),"SHMT2 (Homo sapiens, UniProt P34897)","serine to glycine conversion, inhibitor",,"pH 7.5, 1% DMSO, together with: L-serine 1 mM, THF 0.2 mM",0.83
CN(C)C/C=C/C(=O)Nc1ccc2nc(NCCCCCN(C)C)nc(NCCCCCCN(C)C)c2c1,"TP53-binding protein 1, tandem tudor domain (Homo sapiens, UniProt Q12888)","methyl-lysine binding, TR-FRET",,,20
O=C(O)c1ccc(-c2ccc(O)cc2)c2c1C=C(c1ccc(O)cc1)OC2(c1ccc(O)cc1)c1ccc(O)cc1,"PDE4D (Homo sapiens, UniProt Q08499)","enzyme activity, inhibitor, fluorescence",,,0.04
O=c1c(-c2cccs2)[n+]([O-])c2ccccc2n1O,"Na(+)/H(+) exchange regulatory cofactor NHE-RF1, PDZ1 domain (NHERF1, Homo sapiens, UniProt O14745)","binding, fluorescence polarization competition",,together with: FITC-PTH1R C-terminal peptide,50 ± 5
C=C(NC(=O)C(=C)NC(=O)c1csc(C2=NC3c4csc(n4)C4NC(=O)c5csc(n5)C(C(C)(O)C(C)O)NC(=O)C5CSC(=N5)C(=CC)NC(=O)C(C(C)C)NC(=O)c5csc(n5)C3(CC2)NC(=O)C(C)NC(=O)C(=C)NC(=O)C(C)NC(=O)C(C(C)CC)NC2C=Cc3c(C(C)O)cc(nc3C2O)C(=O)OC4C)n1)C(N)=O (stereo not shown),"PSMB5 (Homo sapiens, UniProt P28074)","chymotrypsin-like activity, inhibitor",purified 20S proteasome,"15 min preincubation, 37 °C, together with: Suc-Leu-Leu-Val-Tyr-AMC substrate",5.38 ± 0.97
N[C@@H](Cc1c[nH]c2c(OCc3ccccc3)cccc12)C(=O)O,SLC7A5,"transporter uptake, inhibitor, radiometric",,,> 100
COc1ccc2c(c1)CC[C@H]1[C@@H]3[C@H](OCC(=O)N(C)C4CCCCC4)CC(=O)[C@@]3(C)CC[C@H]21,"HSD17B1 (Homo sapiens, UniProt P14061)","enzyme activity, inhibitor, radiometric",,,5.6 to 7
O=C(O)C1CC(=O)N(CCC23CC4CC(CC(C4)C2)C3)C(=Nc2ccc(Cl)cc2)S1 (stereo not shown),"OGT (Homo sapiens, UniProt O15294)","enzyme activity, inhibitor",,"together with: UDP-GlcNAz, Nup62 substrate",19.7
N[C@@H](Cc1c[nH]c2cc(OCc3ccccc3)ccc12)C(=O)O,SLC7A5,"transporter uptake, inhibitor, radiometric",,,> 100
CC(C)[C@H](NC(=O)c1ccc2ccccc2n1)C(=O)N[C@@H](CC(=O)O)C(=O)N[C@H](C(=O)N[C@@H](C)C(=O)NC(CC(=O)O)C(=O)COc1c(F)cccc1F)C(C)C (stereo partly shown),"Caspase-2 (Homo sapiens, UniProt P42575)","enzyme activity, inhibitor, absorbance",,,~0.0074
NS(=O)(=O)c1ccc(/N=N/c2cc(C(=O)O)c(O)c3ccccc23)cc1,GLO1,"enzyme activity, inhibitor",,,10.5
CCOc1cncc(-c2ccc(NC(=O)C(CC)c3ccnc(NS(=O)(=O)C4CC4)n3)nc2)n1 (stereo not shown),"Ctps1 (Mus musculus, UniProt P70698)","enzyme activity, inhibitor, mass spectrometry",,,0.0267
COC(=O)C1CN1S(=O)(=O)c1ccc2cc(C)ccc2c1 (stereo not shown),PDIA3,"enzyme activity, inhibitor, absorbance",,pH 7.6,> 200
Cn1c(=O)c(=O)n(C)c2cc(S(=O)(=O)Nc3ccc(S(=O)(=O)Nc4ncccn4)cc3)ccc21,DPP9,"enzyme activity, inhibitor, fluorescence",,,> 100
O=C(COc1ccc(F)cc1)N[C@@H](Cc1cn(CCNC(=O)c2ccc(S[C@@H]3O[C@H](CO)[C@H](O)[C@H](O)[C@H]3O)cc2)nn1)C(=O)NCCO,"lecA (Pseudomonas aeruginosa, UniProt Q05097)","ligand displacement, FP",,,58.3
CNC(=O)C(CS)N1C(=O)c2ccc(N(C)C)cc2C1=O (stereo not shown),"blaNDM-1 (Klebsiella pneumoniae, UniProt C7C422)","enzyme activity, inhibitor",,pH 7,8.2
N=C(NCCCC(N)C(N)=O)NCCSCC1OC(n2cnc3c(N)ncnc32)C(O)C1O (stereo not shown),"PRMT1 (Homo sapiens, UniProt Q99873)","enzyme activity, inhibitor, fluorescence",,,16
O=C(O)c1cccc(/C=N/OCCCO/N=C/c2cc(=O)[nH]c(=O)[nH]2)c1,"UNG (Homo sapiens, UniProt P13051)","enzyme activity, inhibitor, fluorescence",,,11
O=C(O[C@@H]1Cc2c(O)cc(O)cc2O[C@@H]1c1cc(O)c(O)c(O)c1)c1cc(O)c(O)c(O)c1,"maltase, rat","enzyme activity, inhibitor",rat intestinal brush border vesicles,,1.3
Cc1cc(C)nc(SCC(=O)Nc2ncc(Cc3cccc(OCc4cn(Cc5ccc(C#N)cc5)nn4)c3)s2)n1,"SIRT2 (Homo sapiens, UniProt Q8IXJ6)",inhibitor,,,1.1 ± 0.2
CC(C)C[C@H](NC(=O)[C@H](CC(N)=O)NC(=O)[C@H](CC(C)C)NC(=O)[C@@H](NC(=O)[C@@H](NC(=O)[C@@H]1CCCN1C(=O)[C@H](CCCNC(=N)N)NC(=O)[C@H](CCCCN)NC(=O)[C@@H]1CCCN1C(=O)[C@H](CCCNC(=N)N)NC(=O)[C@H](CCCNC(=N)N)NC(=O)[C@H](CCCNC(=N)N)NC(=O)[C@H](CCCNC(=N)N)NC(=O)[C@H](CCC(N)=O)NC(=O)[C@H](CCCNC(=N)N)NC(=O)[C@H](CCCNC(=N)N)NC(=O)[C@H](CCCCN)NC(=O)[C@H](CCCCN)NC(=O)[C@H](CCCNC(=N)N)NC(=O)CNC(=O)[C@@H](N)Cc1ccc(O)cc1)[C@@H](C)O)[C@@H](C)O)C(=O)N[C@@H](Cc1ccccc1)C(N)=O,"MAPK9 (Homo sapiens, UniProt P45984)","enzyme activity, inhibitor",,,1.8 ± 0.2
O=C(Nc1ccccc1Nc1ccccc1)c1cccnc1C(F)(F)F,"Succinate dehydrogenase complex (Sus scrofa, UniProt A5GZW8+D0VWV4+Q007T0+Q0QF01)","enzyme activity, inhibitor, double-antibody sandwich ELISA",,,10.5
O=C(/C=C/c1ccc(O)cc1)c1ccc(O[C@@H]2O[C@H](CO)[C@@H](O)[C@H](O)[C@H]2O)cc1O,"Prothrombin (F2, Homo sapiens, UniProt P00734)","enzyme activity, inhibitor, fluorescence",,with preincubation,32.9

# A few entries again:
SMILES,target,test,system,setting,IC50 [µM]
CCOc1c(C(C)(C)O)sc2cnc(Nc3ccc(N4CCC(N5CC6(COC6)C5)CC4)cc3OC)nc12,"CAMK2D (Homo sapiens, UniProt Q13557)","enzyme activity, inhibitor, mobility shift",,,0.022
COC(=O)C1CN1S(=O)(=O)c1ccc2cc(C)ccc2c1 (stereo not shown),PDIA3,"enzyme activity, inhibitor, absorbance",,pH 7.6,> 200
O=C(O)C1CC(=O)N(CCC23CC4CC(CC(C4)C2)C3)C(=Nc2ccc(Cl)cc2)S1 (stereo not shown),"OGT (Homo sapiens, UniProt O15294)","enzyme activity, inhibitor",,"together with: UDP-GlcNAz, Nup62 substrate",19.7
N[C@@H](Cc1c[nH]c2c(OCc3ccccc3)cccc12)C(=O)O,SLC7A5,"transporter uptake, inhibitor, radiometric",,,> 100
CN(C)C/C=C/C(=O)Nc1ccc2nc(NCCCCCN(C)C)nc(NCCCCCCN(C)C)c2c1,"TP53-binding protein 1, tandem tudor domain (Homo sapiens, UniProt Q12888)","methyl-lysine binding, TR-FRET",,,20
